Experimental data of several laboratories.
A part holds a random share of what one study measured.

Series 1
Target: Ras GTPase-activating protein-binding protein 1, full length (G3BP1, Homo sapiens, UniProt Q13283)
Sequence of UniProt Q13283 (whole entry, looked up): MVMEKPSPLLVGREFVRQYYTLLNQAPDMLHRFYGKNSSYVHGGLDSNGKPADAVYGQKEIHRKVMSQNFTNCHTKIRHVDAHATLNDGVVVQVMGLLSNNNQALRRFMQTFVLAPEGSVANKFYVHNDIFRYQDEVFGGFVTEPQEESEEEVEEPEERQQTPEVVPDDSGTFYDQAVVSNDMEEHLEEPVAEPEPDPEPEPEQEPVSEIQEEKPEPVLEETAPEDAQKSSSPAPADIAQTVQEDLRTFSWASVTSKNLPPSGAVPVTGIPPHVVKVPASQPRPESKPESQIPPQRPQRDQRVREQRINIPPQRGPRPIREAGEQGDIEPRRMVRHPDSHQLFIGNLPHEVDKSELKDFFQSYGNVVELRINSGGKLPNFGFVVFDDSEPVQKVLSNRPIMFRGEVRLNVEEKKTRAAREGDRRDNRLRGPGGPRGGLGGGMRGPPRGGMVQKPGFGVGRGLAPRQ
Method: RNA Bind-n-Seq
Form: RNA
Sample: in vitro
Concentration: 200 nM
Notes: whole 134-nt RNA, ends assumed
Added: 150 mM KCl
Reference: input library
Reading: higher = stronger binding
Quantity: log2 enrichment
GGGAGUUCUACAGUCCGACGAUCCCUGUGCUACACAUCGUAUGUACCGAAUCGGUUUUUUUGGGUUUUUUUGGGUUUUUUUGGGAAAGUAUUAUGUUACGCCGUUCGGAUCUGUGGAAUUCUCGGGUGUCAAGG: -1.04
GGGAGUUCUACAGUCCGACGAUCUGUAUCCCUGUUUCUUUUCUCCCUACAGAAACAUAUGAGGAUUUUGAUACCAGGAUACUUGAGGUAGGCAUGCAGAAUUAAAUACCUGGUUGGAAUUCUCGGGUGUCAAGG: 0.213
GGGAGUUCUACAGUCCGACGAUCUUUUAGAAAGAGAAGGGGAAGAAAAUGAAGCCUUACAUAAGAUGAUUGCAAACGAGCAAAAGACUUCUCUCCCAAAUUUGUUCCAGGAUAUGGAAUUCUCGGGUGUCAAGG: -1.28

Series 2
Target: Interferon regulatory factor 3, full length, phosphomimetic (IRF3, Homo sapiens, UniProt Q14653, residues 1-427, S386D/S396D/S398D/S402D/T404D/S405D)
Method: protein-binding microarray
Form: double-stranded DNA, one strand shown
Sample: in vitro
Concentration: 2540 nM top
Notes: 60-bp whole probe
Added: salmon DNA 0.4 mg/ml
Reference: random background probes
Reading: higher = stronger binding
Quantity: fitted relative affinity
Constant ends, left off below: GCCTAGCAC … GTCTTGATTCGCTTGACGCTGCTG
Target sequence (chain): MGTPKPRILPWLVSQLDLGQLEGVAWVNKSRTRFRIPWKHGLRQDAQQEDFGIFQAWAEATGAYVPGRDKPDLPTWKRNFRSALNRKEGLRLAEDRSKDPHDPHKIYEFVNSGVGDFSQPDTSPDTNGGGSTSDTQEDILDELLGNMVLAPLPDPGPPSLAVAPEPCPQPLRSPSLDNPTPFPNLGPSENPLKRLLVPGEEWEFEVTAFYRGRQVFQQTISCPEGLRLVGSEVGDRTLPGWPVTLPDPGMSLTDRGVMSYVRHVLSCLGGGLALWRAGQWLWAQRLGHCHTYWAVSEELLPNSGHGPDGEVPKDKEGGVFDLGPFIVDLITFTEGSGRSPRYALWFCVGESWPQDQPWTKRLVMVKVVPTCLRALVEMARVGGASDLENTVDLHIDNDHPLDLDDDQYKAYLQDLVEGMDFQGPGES
CACGGTATCGGGACTGGGGACGTGCTA: 1.46 z-score
TTAGATCTCAATCTCGATTAGTGCTAG: 0.805 z-score
AATTGTCTCTGTCCCTGTTTGTGCTAG: 0.526 z-score
TGTGGGCGTAGGCCCGGAGCGTGCTAG: -1.42 z-score
TTAGGTATCCTTTTCCTTTTGTGCTAG: 8.65 z-score

Series 3
Target: Sal-like protein 4, full length isoform A (SALL4, Homo sapiens, UniProt Q9UJQ4, residues 1-1053)
Sequence of UniProt Q9UJQ4 (whole entry, looked up): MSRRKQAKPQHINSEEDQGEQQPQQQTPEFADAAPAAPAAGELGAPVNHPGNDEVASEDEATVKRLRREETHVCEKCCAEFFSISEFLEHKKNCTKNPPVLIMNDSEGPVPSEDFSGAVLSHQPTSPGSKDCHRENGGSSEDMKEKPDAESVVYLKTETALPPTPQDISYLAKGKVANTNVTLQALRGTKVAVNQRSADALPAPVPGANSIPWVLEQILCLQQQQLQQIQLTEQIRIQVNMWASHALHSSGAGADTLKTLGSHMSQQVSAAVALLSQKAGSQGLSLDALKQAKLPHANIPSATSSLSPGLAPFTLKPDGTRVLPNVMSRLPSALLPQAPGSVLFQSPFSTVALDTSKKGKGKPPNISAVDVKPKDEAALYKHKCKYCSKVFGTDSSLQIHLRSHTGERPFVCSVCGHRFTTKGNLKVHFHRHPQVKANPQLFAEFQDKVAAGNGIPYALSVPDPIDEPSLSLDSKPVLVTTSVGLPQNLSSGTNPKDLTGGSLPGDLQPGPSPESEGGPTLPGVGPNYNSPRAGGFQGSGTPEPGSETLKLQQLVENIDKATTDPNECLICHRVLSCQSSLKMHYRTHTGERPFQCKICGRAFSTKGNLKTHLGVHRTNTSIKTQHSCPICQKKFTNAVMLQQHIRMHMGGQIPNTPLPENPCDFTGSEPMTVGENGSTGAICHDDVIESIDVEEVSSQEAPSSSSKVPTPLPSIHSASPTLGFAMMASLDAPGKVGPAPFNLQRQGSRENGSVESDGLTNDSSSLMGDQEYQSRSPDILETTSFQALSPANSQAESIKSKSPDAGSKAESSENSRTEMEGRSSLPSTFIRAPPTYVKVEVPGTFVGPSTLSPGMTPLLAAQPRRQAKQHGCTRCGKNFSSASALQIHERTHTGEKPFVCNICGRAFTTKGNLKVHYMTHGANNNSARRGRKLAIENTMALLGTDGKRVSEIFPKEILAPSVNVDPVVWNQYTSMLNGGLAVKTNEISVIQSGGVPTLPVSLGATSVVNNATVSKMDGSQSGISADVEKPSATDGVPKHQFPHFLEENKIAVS
Method: universal PBM
Form: double-stranded DNA, one strand shown
Sample: in vitro
Concentration: 600 nM
Notes: 8-mer, flanks averaged, mean of replicates
Reading: higher = stronger binding
Quantity: E-score
CGTATAGC: -0.0198
CATTTTGC: 0.173
ATGCATAG: 0.144
GAGCCCGC: -0.354

Mixed results
PhoQ, residues 284 288 289 292 302 303 GANMMA
fold induction (PhoP, residues 12 14 15 18 19 SGWQI (Escherichia coli, UniProt P23836); Sort-seq, refers to: YFP reporter; E. coli; PhoQ-PhoP variant library, added: 10 µM Mg2+; reference: high Mg2+ state, higher = stronger signaling): 0.489

A few entries again (series 3):
CGTATAGC: -0.0198
